Results from different studies.
A part holds a random share of what one study measured.

Study 1 — method: RNA Bind-n-Seq; molecule type: RNA; matrix: in vitro; concentration: 365 nM; baseline: no-protein control; direction: higher = stronger binding
Target: RNA binding protein fox-1 homolog 2, RRM domain, GST-SBP tag (RBFOX2, Homo sapiens, UniProt O43251-10, residues 100-194)
Notes: natural RNA segment, single round, ends assumed
Constant ends, left off below: GGGAGUUCUACAGUCCGACGAUC … UGGAAUUCUCGGGUGCCAA
Target sequence (chain): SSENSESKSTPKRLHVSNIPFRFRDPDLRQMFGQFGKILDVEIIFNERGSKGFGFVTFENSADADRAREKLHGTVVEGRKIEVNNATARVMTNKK
Oligonucleotide	RBNS enrichment (R)
GCCACUGAACACCUCCACCAGCUCUUUGGGAAUUGGAUGGAAAGGCGGCCCCUGGGGGCCAGGGGUGUGCAGCUUCCCACUCACGGGAGGAGUGGCCAGGGCUCUUGGUU	0.494
GAAUUAUGUGCACUACCAUAGCUACAUCAGUUUGAUACAGUAUUGAAAAAUUAUCAGUUAUAUUUUGCUGUUUAUGAUCUAUUUGUAGAUUAGGAUUAAAAUGGAUUUAA	0.9
UGGAGUAUUUGCUUCUUUUGUUCGCGCAGACAUGUGAAGGAGUGUCUUAAAACAAUACAUGUAUUUAAAAUAAUGCAGUCAUAACCUAAUUAAUGGAUCAUCAGCUUGAC	0.494
GAGUGGGGAGCAUGGAACUCCUGGGCUCUUGUGGGGACGUUCAGGGUAUCGGGGUGCGAGGUCUGUCUGCACCGGCCCCCACAUCUAACCAGGCCCUGAUGUAGGGGUCG	0.853
AAGUAAAAUAGCUUGGAUUCAAUCAUGUGACUUUUAAAUUGGCUCAGAAAGCAAUUUUGUAAUUUCAGAGAGUGUUUUGAGCCAUGGCCACGUUGUCAUUGUGAGUCUAU	0.281
ACACUUCUGUUAAAAUGCAGGAGGUAGUGUCAUAAUGCCGUCUUUAUAUUCUUAAUAAAUAGCACUUUGACAAGAACAGGACUGUAAAUGAUGAAGUACAAGACAAAUAC	0.462
UUCUGUUGGAAAGCCAGCAUGUGAGACCCUUCCACCAUGCCUCAUUCCAGCCCUCCUUGAGCUCACUACUUGACCAGACUGGGUAAUGCAUCACCUCUUCUCAUCAGUGG	1.94
UGCAUCAUGCAUGACUCACUCAGGGGCCCUUGGGGCCCUCUUCUCUAUGAUAUGAAUACUGUGUGUGUGAGUUGAAGCAUUACCUGAUAUUAAAUGAAGGAUUUGGAGAA	2.96
CUCAUGGGAAGAAAACUGUACACACUGAACGCAUAGCCCGCUUAGAGAUCACAUCGCCUCUUAGAGACCAUGUCACCUCCUAUCUGUCACCCUUCCUCUUCCUGUCACAG	0.292
AGGAAGCUAGGAAAAGGAAAGUGAAGGAAUGGUCUAAAGAAAUGACCAUUCACACUGAUUUUGUCUGGACAGUCUGGCCGCAGGUUAUUCAUAGAUUAUUCAGCCUUUGC	0.248
AGGGAGAGGACACCAGCACCUGGGACCUCCAGAGAAGCCGCACUGAGCGGACUUGUCGACAGAGGGUGAAAAAUUACUCCCACGCAGUCAGUAACCAUUUCUCUUAUUUU	0.423
GCUUUGGCAUCCAGAGCAUAAGAGAUGAAUGCAGCUACCCUGUGCCAUCCUACUAUAAUAAAUUUUGCACCCACACACAAGUACACAGUUUGCUGUUUUAGAAAGUGAUU	0.919

Study 2 — method: RNA Bind-n-Seq; molecule type: RNA; matrix: in vitro; concentration: 200 nM; notes: whole 134-nt RNA, ends assumed; added: 150 mM LiCl; baseline: input library; direction: higher = stronger binding; each molecule: 7-deaza-guanosine replaces G
Target: Ras GTPase-activating protein-binding protein 1, full length (G3BP1, Homo sapiens, UniProt Q13283)
Sequence of UniProt Q13283 (whole entry, looked up): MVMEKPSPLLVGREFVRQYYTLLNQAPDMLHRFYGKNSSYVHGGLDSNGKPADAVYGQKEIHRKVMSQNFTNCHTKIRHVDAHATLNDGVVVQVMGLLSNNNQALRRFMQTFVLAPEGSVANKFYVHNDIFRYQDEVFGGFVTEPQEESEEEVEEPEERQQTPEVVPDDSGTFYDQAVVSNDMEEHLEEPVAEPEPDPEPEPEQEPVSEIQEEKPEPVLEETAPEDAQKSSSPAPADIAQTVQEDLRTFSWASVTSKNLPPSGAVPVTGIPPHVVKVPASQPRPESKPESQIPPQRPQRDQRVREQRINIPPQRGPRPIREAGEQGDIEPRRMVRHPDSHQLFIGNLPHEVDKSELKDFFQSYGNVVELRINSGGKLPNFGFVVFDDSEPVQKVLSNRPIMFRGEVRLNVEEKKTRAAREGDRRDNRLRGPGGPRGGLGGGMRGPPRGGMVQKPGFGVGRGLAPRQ
Constant ends, left off below: GGGAGUUCUACAGUCCGACGAUC … UGGAAUUCUCGGGUGUCAAGG
Oligonucleotide	log2 enrichment
UCCUCAAGUCCUGUGCUACACAUCGUAUGUACCGAAUCGGGGCGGCGGCGGGAAAGUAUUAUGUUACGCCGUUCGGAUCUGCACUUCCAG	0.669
CUGUGCUACACAUCGUAUGUACCGAAUCGGGGCCCCCCCGGCCCCCCCGGGCCCCCCCGGGAAAGUAUUAUGUUACGCCGUUCGGAUCUG	1.15
UCCUGUGCUACACAUCGUAUGUACCGAAUCGGGUUUUUUGGGUUUUUUGGGUUUUUUGGAAAGUAUUAUGUUACGCCGUUCGGAUCUGCA	0.595
UCAAGUCCUGUGCUACACAUCGUAUGUACCGAAUCGGCCCGGGGCCCGGGCCCGGAAAGUAUUAUGUUACGCCGUUCGGAUCUGCACUUC	-0.892
GCAGGAAGUCAAAACAAAUGGAAAUGCUUCGGAUAGUGGCAGGGGUGGGGGUUGCUAAGGAAAGGGUGGGAUGGGAGUGGGUAAAGAGUU	0.0171
UGGCCCUGCUGGCAUGCGGGGAGGAAGAGGUGGCCUCAUGGAUCGUGGUGGUCCCGGUGGAAUGUUCAGAGGUGGCCGUGGUGGAGACAG	0.312
UUGUGAGAGCCACAGGAAAAGCAAGAAGGAGAAGAAGAAAAAGAAAAAGAGGAAACACAAGAAAGAGAAGAAGAAGAAAGACAAAGAGCA	0.213
UCCUGUGCUACACAUCGUAUGUACCGAAUCGGGUUUUUUUGGGAAAGGGUUUUUUUGGGAAAGUAUUAUGUUACGCCGUUCGGAUCUGCA	-1.34
AGUCCUGUGCUACACAUCGUAUGUACCGAAUCGGGGAGGGGUUUGGGGUUUUUGGGGAAAGUAUUAUGUUACGCCGUUCGGAUCUGCACU	-0.153
UCCUGUGCUACACAUCGUAUGUACCGAAUCGGGGAAAGGGGUUUGGGGAAAAAAAGGGGAAAGUAUUAUGUUACGCCGUUCGGAUCUGCA	-0.821
CAAGUCCUGUGCUACACAUCGUAUGUACCGAAUCGGGAAAAGGAAAAGGAAAAGGGAAAGUAUUAUGUUACGCCGUUCGGAUCUGCACUU	-0.964

Study 3 — method: protein binding microarray; molecule type: double-stranded DNA, one strand shown; matrix: in vitro; concentration: not given; baseline: not given; direction: higher = stronger binding
Target: Histone acetyltransferase KAT6A, winged helix 2, GST fusion (KAT6A, Homo sapiens, UniProt Q92794, residues 85-181)
Notes: 8-mer, flanks averaged, mean of 2 arrays, mostly near background
Target sequence (chain): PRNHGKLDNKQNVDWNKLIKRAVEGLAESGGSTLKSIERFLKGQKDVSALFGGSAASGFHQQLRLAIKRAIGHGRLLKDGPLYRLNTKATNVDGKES
Oligonucleotide	E-score
AGCTGGAT	0.0393
AAACACTA	0.0184
TGTCCAAA	0.0488
ATGCTACA	-0.0645
CCTGCCAC	-0.0881
CGCAGTTC	0.116
CTGCCGAC	0.0244
CTTTGCAC	0.0389
CGCGCAGC	0.24
ATTGAGAC	0.0284
AACAAGGG	0.00857
GCATTACC	-0.0948
ACAAGATA	-0.0518
CGAAATAA	0.151
CGTGAGGC	-0.0243
CATCCTTA	-0.211
AAAAGCTG	0.0767
GTAATGAA	-0.0695
ATGGGCAA	-0.0626
CAGCCCTC	0.0401
CCTCAACC	0.0385
CGGTAGGA	0.0672
GTTTCTAA	0.0956
AGGGCCGG	0.152
AAGATTCG	0.0648

Study 4 — method: competition protein-binding microarray; molecule type: double-stranded DNA, one strand shown; matrix: in vitro; concentration: 2 µM; added: Cbf1 competitor, 0.05 µM; direction: higher = stronger binding; constant ends, left off below: … GTCTTGATTCGCTTGACGCTGCTG
Target: Phosphate system positive regulatory protein PHO4, full length, GST-tagged (PHO4, Saccharomyces cerevisiae, UniProt P07270, residues 1-312)
Notes: whole 60-bp probe, lowest competitor level
Residues (chain): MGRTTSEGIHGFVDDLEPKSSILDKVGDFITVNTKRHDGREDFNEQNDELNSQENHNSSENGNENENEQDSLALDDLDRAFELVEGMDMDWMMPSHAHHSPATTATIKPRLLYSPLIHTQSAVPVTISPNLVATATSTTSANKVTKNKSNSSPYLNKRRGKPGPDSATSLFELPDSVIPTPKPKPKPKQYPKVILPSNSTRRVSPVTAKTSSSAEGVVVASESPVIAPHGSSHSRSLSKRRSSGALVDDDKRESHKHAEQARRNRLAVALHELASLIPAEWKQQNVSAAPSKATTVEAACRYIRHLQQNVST
Oligonucleotide	fluorescence intensity [a.u.]
GTCTTGTCTCATTGGACTGTGGGTGTCCCCACTTCA	4100
AAATTACTAAGTTTTCACGTGTTTTACCCCGTATGA	15200
TGGATACATTGAAGCTGCGTGACGGATTGGCCTCGG	6210
CTTTTAGGAATCCATCACGTGATGGGGATATCTACG	14700
CGGGGTTAAGTTTGTCACCCCACTTGCTTGCAGCAG	4540
TGATTGAAAACCAACAATGTGACAGTGAAAACAACA	6170
ACAACCGTCTATGATGACGTGTTGACATTATCAAAC	6050
GAATGCTTCTGTCTCTGCGTGCTTTTCAAAGGAGAA	6760
AAGGGCCAATTCGGCCATGTGTGAGTAAGATCGCAA	7520
GAACCAAGACCGTCAAGCGTGCTTTTAAGGCTTTGA	6540
CTAAACAGTCCGCCCAACGTGGTCGAGTTTGCTTTA	13300
AGTAATGTCTTTCAACACGTCAACAACTCCTCGGGA	4800
GTTACTATTCTTTGCATCGTGCATCGACTTACACCA	11200
TGGAATAACAGTTGGCATGTGCCCACTGTATTCATG	12200
TTGTAAGGTGCAATGCACATGAGTGATTGTTAAAAA	7220
CTTCTGTAAATTTGGCTGGTGGGTGGACGCGCCCCG	4860
CTAAAGTATATGACTCACGTGGTCGAAAGAAAGCGG	18900
GTCAACAACAACAACCTCGTGACAAATAGTTTGTAA	10900
TGCGCAACAACTTGTACCGTGGGTGTATGTCTAGAA	6970
CGGGGTTAAGTTTTTCACGTGTCCTGCTTGCAGCAG	12000
GTCTTGTCTCATTGTCACGTGTTTTTCCCCACTTCA	14400
TCGCATCCAGGCACACCCGTGTCCTCTTCTTTAATG	10000
CTCGTTCAGACGAGTCACGTCGGTAGCCAGACCGGT	4090
TAATATTTGTAAAAGCACGTGATGGTGCCTTTTTCT	17200
ATAAGAACGCTACCAAACGTGGTAACTTGTCCGTCA	11000

A few entries again (study 4):
Oligonucleotide	fluorescence intensity [a.u.]
CTTCTGTAAATTTGGCTGGTGGGTGGACGCGCCCCG	4860
CTAAAGTATATGACTCACGTGGTCGAAAGAAAGCGG	18900
GTCAACAACAACAACCTCGTGACAAATAGTTTGTAA	10900
TGCGCAACAACTTGTACCGTGGGTGTATGTCTAGAA	6970
CGGGGTTAAGTTTTTCACGTGTCCTGCTTGCAGCAG	12000
GTCTTGTCTCATTGTCACGTGTTTTTCCCCACTTCA	14400
TCGCATCCAGGCACACCCGTGTCCTCTTCTTTAATG	10000
CTCGTTCAGACGAGTCACGTCGGTAGCCAGACCGGT	4090
